Results collected from several papers.
Lines come from different studies, so protocols differ. Numbers after ± are the reported error. Values after ≈ are worked out from the molar mass of the structure shown.

Substance | organism | test | test system | setting | how to read | quantity | result
C[C@H](CCC(=O)O)[C@H]1CC[C@H]2[C@@H]3C[C@H](O)[C@@H]4C[C@H](O)CC[C@]4(C)[C@H]3CC[C@]12C | Clostridioides difficile | spore germination, inhibitor, OD600 | NAP1 | 20 min, together with: 2000 µM taurocholate | – | complete inhibition concentration | 500 µM
CN(C(=O)c1ccn2ncc(-c3ccc(C(N)=O)cc3)c2c1)c1ccc(C#N)cn1 | Cryptosporidium hominis | cytopathic effect | HCT-8 | 48 h | – | EC50 | 207 ± 2 nM
CC(=O)OC[C@@]1(C)[C@H]2CC[C@@H]3CN(Cc4ccc(C(F)(F)F)cc4)[C@@H](C4=CCOC4=O)C[C@H]3[C@]2(C)CC[C@H]1OC(C)=O | Human coronavirus 229E | viral replication, cytopathic effect | MRC5 cells | 25 µM | – | inhibition | ~100%
CC(=O)O[C@@H]1CC[C@@]2(C)[C@@H](C1)C[C@H](OC(C)=O)[C@@H]1[C@@H]2CC[C@]2(C)[C@@H]([C@H](C)CCC(N)=O)CC[C@@H]12 | Clostridioides difficile | spore germination, inhibitor, OD600 | NAP1 | 20 min, together with: 2000 µM taurocholate | – | complete inhibition concentration | 50 µM
Cc1cc(Nc2ccc(C(F)(F)F)nc2)n2nc(C(C)(F)F)nc2n1 | Plasmodium vivax | schizont maturation | field isolates Papua Indonesia | 48 h, human serum medium | – | EC50 | 180 nM
O=C(Nc1ccc(Cl)c(Cl)c1)Nc1nnc(SCC(O)(Cn2cncn2)c2ccc(F)cc2F)s1 (stereo not shown) | Nannizzia gypsea | broth microdilution | PTCC 5070 | 48 h, 37 °C | – | MIC90 | 8 µg/mL (≈ 14.3 µM)
COC(=O)c1cc(Cl)ccc1N(C)C(=O)c1ccn2ncc(-c3ccc(C(N)=O)cc3)c2c1 | Cryptosporidium hominis | cytopathic effect | HCT-8 | 48 h | – | EC50 | 32 nM
CN1CC(O)=C(C(=O)NC(C(=O)NC2C(=O)N3C2SC(C)(C)C3C(=O)O)c2ccccc2)C1=O (stereo not shown) | Escherichia coli | broth microdilution | BW25113, Mueller-Hinton broth | – | – | MIC | 100 µg/mL (≈ 205 µM)
C[C@@H]1[C@H](O)[C@@H](C)/C=C/C=C/C=C/C=C/C=C/C=C/C=C/[C@H](O[C@@H]2O[C@H](C)[C@@H](O)[C@H](N)[C@@H]2O)C[C@@H]2O[C@](O)(C[C@@H](O)C[C@@H](O)[C@H](O)CC[C@@H](O)C[C@@H](O)CC(=O)O[C@H]1C)C[C@H](O)[C@H]2C(=O)O | Candida albicans | microbial growth, well diffusion | ATCC10231 | 500 µg/mL, 72 h | – | inhibition zone | 22 mm
O=C(NCCN1CCCC1)c1cc(-c2ccc(CN3CCOCC3)cc2)nc2ccc(F)cc12 | Plasmodium vivax | schizont maturation | clinical isolates | ex vivo range | – | EC50 | 0.25 to 1.39 nM
CN[C@H](CC(C)C)C(=O)N[C@H]1C(=O)N[C@@H](CC(N)=O)C(=O)N[C@H]2C(=O)N[C@H]3C(=O)N[C@H](C(=O)N[C@H](C(=O)O)c4cc(O)cc(O)c4-c4cc3ccc4O)[C@H](O)c3ccc(c(Cl)c3)Oc3cc2cc(c3O[C@@H]2O[C@H](CO)[C@@H](O)[C@H](O)[C@H]2O[C@H]2C[C@](C)(N)[C@H](O)[C@H](C)O2)Oc2ccc(cc2Cl)[C@H]1O | Staphylococcus aureus CVCC546 | ELISA, measured: TNF-α | CD-1 mouse endometritis | 10 µg/mL, 24 h | – | serum cytokine level | 125 pg/mL
O=S1(=O)N(CCN2CCOCC2)CCN1Cc1cccc(Oc2ccccc2)c1 | Norwalk virus | replicon RNA level, qRT-PCR | HG23 (Norwalk virus replicon) | 24 h | – | EC50 | 4200 ± 1800 nM
O=C(Nc1ccc(F)cc1)Nc1nnc(SCC(O)(Cn2cncn2)c2ccc(F)cc2F)s1 (stereo not shown) | Nannizzia gypsea | broth microdilution | PTCC 5070 | 48 h, 37 °C | – | MIC90 | 8 µg/mL (≈ 15.8 µM)
COc1cc2[nH]c(C)c(-c3ccc(C(F)(F)F)cc3)c(=O)c2cc1Cl | Plasmodium berghei (GFP) | – | mice | oral, 10 mg/kg once daily, days 3-5, day 6 post-infection | – | parasitaemia suppression | 11 ± 2.3%
CC[C@H]1OC(=O)[C@H](C)[C@@H](O[C@H]2C[C@@](C)(OC)[C@@H](O)[C@H](C)O2)[C@H](C)[C@@H](O[C@@H]2O[C@H](C)C[C@H](N(C)C)[C@H]2O)[C@](C)(O)C[C@@H](C)C(=O)[C@H](C)[C@@H](O)[C@]1(C)O | other Enterobacteriaceae | – | community-acquired pneumonia patients | Fine score below 70 | – | sensitive strains | 0%
Cc1ccc(S(=O)(=O)N2C(=O)CSC2c2cccc(Br)c2)cc1 (stereo not shown) | Lacticaseibacillus casei | broth microdilution | NCIM 2651 | – | – | MIC | 16 µg/mL (≈ 38.8 µM)
CN1CCN(C(=O)CN2C(=O)Cc3c([nH]c4ccc(Br)cc34)-c3ccc(Cl)cc32)CC1 | Leishmania braziliensis | – | J774 macrophages, intracellular amastigotes | 24 h | – | EC50 | 7000 ± 1300 nM
LSTFFRLFN | Streptococcus mutans | broth microdilution | peptide, UA159 | planktonic, anaerobic | – | MIC | > 256 µg/mL
C[C@H]1[C@H](OC(=O)CCC(=O)O)O[C@@H]2O[C@@]3(C)CC[C@H]4[C@H](C)CC[C@@H]1[C@@]24OO3 | Hepatitis E virus | viral replication, inhibitor, luciferase | – | 48 h, replicon | – | EC50 | 19500 nM

Substance | organism | test | test system | setting | how to read | quantity | result
Cc1ccccc1NC(=O)CSc1nc2ccccc2c(=O)n1-c1ccc(S(N)(=O)=O)cc1 | Candida albicans | microbial growth, well diffusion | ATCC10231 | 500 µg/mL, 72 h | – | inhibition zone | 20 mm
O=C(CN1C(=O)Cc2c([nH]c3ccc(Br)cc23)-c2ccc(Cl)cc21)N1CCNCC1 | Leishmania braziliensis | parasite growth | J774 | 24 h, intracellular, amastigote | – | EC50 | 200 to 400 nM
CC1(C)S[C@@H]2[C@H](NC(=O)[C@H](N)c3ccc(O)cc3)C(=O)N2[C@H]1C(=O)O | all pathogens | – | community-acquired pneumonia patients | Fine score below 70 | – | sensitive strains | 64.8%
O=C(Nc1ccc(Br)cc1)Nc1nnc(SCC(O)(Cn2cncn2)c2ccc(F)cc2F)s1 (stereo not shown) | Nannizzia gypsea | broth microdilution | PTCC 5070 | 48 h, 37 °C | – | MIC90 | 8 µg/mL (≈ 14.1 µM)
CC[C@H]1OC(=O)[C@H](C)[C@@H](O[C@H]2C[C@@](C)(OC)[C@@H](O)[C@H](C)O2)[C@H](C)[C@@H](O[C@@H]2O[C@H](C)C[C@H](N(C)C)[C@H]2O)[C@](C)(O)C[C@@H](C)CN(C)[C@H](C)[C@@H](O)[C@]1(C)O | other Enterobacteriaceae | – | community-acquired pneumonia patients | Fine score 70 or more | – | sensitive strains | 0%
Cc1ccc(S(=O)(=O)N2C(=O)CSC2c2ccc(F)cc2)cc1 (stereo not shown) | Lacticaseibacillus casei | broth microdilution | NCIM 2651 | – | – | MIC | 4 µg/mL (≈ 11.4 µM)
COc1cc2[nH]c(C)c(-c3ccc(Oc4ccc(OC(F)(F)F)cc4)cc3)c(=O)c2cc1Cl | Plasmodium yoelii | – | mouse, patent infection | oral, no recrudescence, PEG-400 vehicle | – | single-dose cure dose | > 20 mg/kg
Cc1cccc(NC(=O)Nc2nnc(SCC(O)(Cn3cncn3)c3ccc(F)cc3F)s2)c1 (stereo not shown) | Nannizzia gypsea | broth microdilution | PTCC 5070 | 48 h, 37 °C | – | MIC90 | 2 µg/mL (≈ 3.97 µM)
c1cnc(NCCCn2ccnc2)cn1 | Leishmania braziliensis | – | J774.2 macrophages | IC25, 240 h, day 10 | baseline: untreated | infection inhibition | 58%
O=C(Nc1nnc(SCC(O)(Cn2cncn2)c2ccc(F)cc2F)s1)Nc1ccccc1Cl (stereo not shown) | Nannizzia gypsea | broth microdilution | PTCC 5070 | 48 h, 37 °C | – | MIC90 | 4 µg/mL (≈ 7.63 µM)
O=C(CN1C(=O)Cc2c([nH]c3ccc(Br)cc23)-c2ccc(Cl)cc21)N1CCCC1 | Leishmania braziliensis | intracellular amastigote infection, DAPI fluorescence microscopy | macrophages | 10 µM, 24 h, 5 µM if macrophages detach | lower = more active | infected macrophages | 15 to 68%
Cc1occc(=O)c1O | Phyllosticta citricarpa | – | PDA plates | 10000 µg/mL, 504 h | – | mycelial growth | 2.9 ± 0.3 cm
O=C(Nc1cccc(F)c1)Nc1nnc(SCC(O)(Cn2cncn2)c2ccc(F)cc2F)s1 (stereo not shown) | Nannizzia gypsea | broth microdilution | PTCC 5070 | 48 h, 37 °C | – | MIC90 | 2 to 4 µg/mL (≈ 3.94 to 7.88 µM)
Cc1ccc(S(=O)(=O)N2C(=O)CSC2c2ccc(Cl)cc2)cc1 (stereo not shown) | Lacticaseibacillus casei | broth microdilution | NCIM 2651 | – | – | MIC | 16 µg/mL (≈ 43.5 µM)
O=C(CN1C(=O)Cc2c([nH]c3ccc(Br)cc23)-c2ccc(Cl)cc21)N1CCOCC1 | Leishmania braziliensis | intracellular amastigote infection, DAPI fluorescence microscopy | macrophages | 10 µM, 24 h, 5 µM if macrophages detach | lower = more active | infected macrophages | 15 to 68%
C[C@@H]1[C@H](O)[C@@H](C)/C=C/C=C/C=C/C=C/C=C/C=C/C=C/[C@H](O[C@@H]2O[C@H](C)[C@@H](O)[C@H](N)[C@@H]2O)C[C@@H]2O[C@](O)(C[C@@H](O)C[C@@H](O)[C@H](O)CC[C@@H](O)C[C@@H](O)CC(=O)O[C@H]1C)C[C@H](O)[C@H]2C(=O)O | Leishmania donovani | parasite growth | THP-1 | intracellular, amastigote | – | IC90 | 1.74 µg/mL (≈ 1.88 µM)
CCN(CC)CCNC(=O)CN1C(=O)Cc2c([nH]c3ccc(Br)cc23)-c2ccc(Cl)cc21 | Leishmania braziliensis | parasite growth | J774 | 24 h, intracellular, amastigote | – | EC50 | 3000 nM
NC(=O)c1ncn([C@@H]2O[C@H](CO)[C@@H](O)[C@H]2O)n1 | porcine epidemic diarrhea virus | – | – | 10 µg/mL, 1 h, 4 °C, virus pre-incubation then washing | – | antiviral activity | 0.9%

For quick reference, copied from above:
Substance | organism | test | test system | setting | how to read | quantity | result
Cc1ccc(S(=O)(=O)N2C(=O)CSC2c2ccc(F)cc2)cc1 (stereo not shown) | Lacticaseibacillus casei | broth microdilution | NCIM 2651 | – | – | MIC | 4 µg/mL (≈ 11.4 µM)
COc1cc2[nH]c(C)c(-c3ccc(Oc4ccc(OC(F)(F)F)cc4)cc3)c(=O)c2cc1Cl | Plasmodium yoelii | – | mouse, patent infection | oral, no recrudescence, PEG-400 vehicle | – | single-dose cure dose | > 20 mg/kg
